Measured values of several laboratories.
A part holds a random share of what one study measured. Changes are numbered by the printed parent chain.

Study 1
Target: CCNA1, cyclin fold, Cln2 fusion (human)
Technique: yeast growth competition, sequencing
Matrix: yeast
Setting: weak parent motif
Reference: not given
Reading: higher = stronger binding
Starting sequence: CDC6 docking peptide (human); TLKGRRLVFDNQL; partner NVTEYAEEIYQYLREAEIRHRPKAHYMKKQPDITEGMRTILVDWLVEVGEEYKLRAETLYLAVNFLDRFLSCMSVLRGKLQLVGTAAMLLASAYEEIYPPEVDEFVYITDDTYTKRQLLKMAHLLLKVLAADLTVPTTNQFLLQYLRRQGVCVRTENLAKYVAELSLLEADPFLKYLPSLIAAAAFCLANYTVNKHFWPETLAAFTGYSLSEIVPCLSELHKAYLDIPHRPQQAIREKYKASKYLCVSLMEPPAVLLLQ
Substitution | normalised enrichment score
K3G | 0.115
Q12T | 0.196
R5V | 0.0898
N11D | 0.189
L7R | 0.499

Study 2
Target: RNA binding protein fox-1 homolog 2, RRM domain, GST-SBP tag (RBFOX2, Homo sapiens, UniProt O43251-10, residues 100-194)
Technique: RNA Bind-n-Seq
Form: RNA
Matrix: in vitro
Concentration: 365 nM
Setting: natural RNA segment, single round, ends assumed
Reference: no-protein control
Reading: higher = stronger binding
Constant ends, left off below: GGGAGUUCUACAGUCCGACGAUC … UGGAAUUCUCGGGUGCCAA
Strand | RBNS enrichment (R)
AUGUGUAGUGUUGAUUGACACAUUAAGACUAGCAGUCUUUAAUCCUGCCACUUUAUUGAGGUGUUAUUAGCACUUUUGUUCAUAAUUCAUAAUUUUGUAAUAAUCUUUAU | 0.616
CAUUCUCAAAUGCCAGUGUGUUCACAUCUUCGCUCUGGCCAGCCCAUUCUGUAUUUAAAGCUUUUGAGGCCCAAUAAAAUAGUACGUGCUGUCUGCAGCCCUUAUUGAUC | 0.443
UUAGAAGAAGGUGCUGGUGUCACACAUUUUUUUAUAAAAAAUAAAUUUUACAUAGUGAAAUACACCAAGUCUUUUCCGGAGUUAUUACAAAGAGCCUCCUUUCCCCACCU | 0.483
UGGGUACUGGAUAGGAACACUGAGAAAGCAAAGCCAAUAGCCGUGAGGACGAGGAAGUUUCUGCCACUGCUUGCAGCUUUUCUGUGUGCUUUGGACUUGCUUUAGGAGGG | 0.532
AGCCUCAAACUCCAAACACCAUAGGUAGGACACGAAGCUUAUCUGUGAUUCAAAACAAAGGAGAUACUGCAGUGGGAAUUGUGACCUGAGUGACUCUCUGUCAGAACAAA | 0.724
CCAGUGCCACAUGCAAAGAGUGUAUUUGGUCUAAACAGUUCUUUCCAAACAACCAAAUGGCUGGGCAGCUUGUUGUCACGGAUAAAUGAUAUAAAAUGUAACCACUGAAC | 0.569
GGUUGAUGCUCUAGAGCCACUCUUUCUUAAUGCCAGAUUAUUUAAAGAAAAAUACAAGACAAAAACCUUCUAGCACUUUGUAAACACAGUGAAUAACCUCUUGGAGUAUU | 0.369
UUGUGACUCUGUUGCUAACGGUUACCACUUCCGAUCGCCCUGUACAUACAUAUGCCGUAAGGCGCAAUCACUGUUUCAGACUUAAAAUUAUUAGUGUGUUUGUUUGGUCC | 0.571

Study 3
Target: Histone acetyltransferase KAT6A, winged helix 2, GST fusion (KAT6A, Homo sapiens, UniProt Q92794, residues 85-181)
Technique: protein binding microarray
Form: double-stranded DNA, one strand shown
Matrix: in vitro
Concentration: not given
Setting: 8-mer, flanks averaged, mean of 2 arrays, mostly near background
Reference: not given
Reading: higher = stronger binding
Target sequence (chain): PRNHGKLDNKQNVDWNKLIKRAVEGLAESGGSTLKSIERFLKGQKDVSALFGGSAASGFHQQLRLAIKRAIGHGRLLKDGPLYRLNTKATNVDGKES
Strand | E-score
AACAAAGA | -0.00716
CTAACTAA | -0.0887
CTGCCCAG | -0.0255
GTGGTTTA | -0.149
AGAGGGTC | -0.141
CCTCATAA | -0.0785

Other studies, line by line
Substance | target | assay | test system | conditions | how to read | quantity | value
PhoQ, residues 284 288 289 292 302 303 SSCLAV | PhoP, residues 12 14 15 18 19 TPWLV (Escherichia coli, UniProt P23836) | Sort-seq, measured: YFP reporter | E. coli | PhoQ-PhoP variant library, added: 10 µM Mg2+ | reference: high Mg2+ state, higher = stronger signaling | fold induction | 11.1

For quick reference, copied from above (study 1):
Substitution | normalised enrichment score
K3G | 0.115
Q12T | 0.196
